Measurements pooled from the literature.
A part holds a random share of what one study measured. Changes are numbered by the printed parent chain.

Set 1
Target: Interferon regulatory factor 5, full length, phosphomimetic (IRF5, Homo sapiens, UniProt Q13568-2, residues 1-514, S451D/S453D/S456D/S462D)
Technique: protein-binding microarray
Molecule type: double-stranded DNA, one strand shown
Sample: in vitro
Concentration: 940 nM top
Notes: 60-bp whole probe
Together with: salmon DNA 0.4 mg/ml
Baseline: random background probes
Reading: higher = stronger binding
Constant ends, left off below: GCCTAGCAC … GTCTTGATTCGCTTGACGCTGCTG
Under “fitted relative affinity”, `GACGGTCTCGGCTTCGGGACGTGCTAG` is recorded as 1.53 z-score.
Under “fitted relative affinity”, `TCATGAATGCCCTTCCATACTGTGCTA` is recorded as 0.21 z-score.
Under “fitted relative affinity”, `TCATTTTTTTTTTCTGAACTGTGCTAG` is recorded as 1.91 z-score.
`GACGAACTTGGGACTGGAGACGTGCTA` — result for “fitted relative affinity”: -0.416 z-score.
Under “fitted relative affinity”, `TCAAATCCCACATTTGATACTGTGCTA` is recorded as 0.555 z-score.
`TTAGATTTCCGTTTCGATTAGTGCTAG` — result for “fitted relative affinity”: 4.61 z-score.
`TTAGGTATCGACTTTAGGTTAGTGCTA` — result for “fitted relative affinity”: 4.78 z-score.
`TTAGGTATCCTTATCGTTTAGTGCTAG` — result for “fitted relative affinity”: 0.385 z-score.
`TTAGGTTTCGGGACTGCGTTAGTGCTA` — result for “fitted relative affinity”: 8 z-score.
For `TTAGGTTTCGGGTATCGGCTAGTGCTA`, “fitted relative affinity” read 11.3 z-score.
For `TCACATTGAGATTTTCATACTGTGCTA`, “fitted relative affinity” read 0.352 z-score.
`GACGAACTGAGACTGGAGAGGTGCTAG`: “fitted relative affinity” -0.408 z-score.
Under “fitted relative affinity”, `GCCGGTATCCTTATCCTGACGTGCTAG` is recorded as 0.179 z-score.
Under “fitted relative affinity”, `TCATGCTTTCCTTTATGACTGTGCTAG` is recorded as 1.37 z-score.
For `TTAGGTTGCGGTTCCGGTTAGTGCTAG`, “fitted relative affinity” read 2.52 z-score.
Under “fitted relative affinity”, `GTCATACGAGCGGTAGCCAAGTGCTAG` is recorded as -0.352 z-score.
Under “fitted relative affinity”, `TCACTTTTCCCCCTAGTACTGTGCTAG` is recorded as 1.32 z-score.

Set 2
Target: RING finger protein unkempt homolog, zinc fingers 1-6, GST-SBP tag (UNK, Homo sapiens, UniProt Q9C0B0, residues 30-357)
Technique: RNA Bind-n-Seq
Molecule type: RNA
Sample: in vitro
Concentration: not given
Notes: RNA with constant flanks, human and mouse sites, ends assumed
Baseline: input RNA pool
Reading: higher = stronger binding
Constant ends, left off below: GGGAGUUCUACAGUCCGACGAUC … CAACAGAGGAUUGAGCAUCA
Residues (chain): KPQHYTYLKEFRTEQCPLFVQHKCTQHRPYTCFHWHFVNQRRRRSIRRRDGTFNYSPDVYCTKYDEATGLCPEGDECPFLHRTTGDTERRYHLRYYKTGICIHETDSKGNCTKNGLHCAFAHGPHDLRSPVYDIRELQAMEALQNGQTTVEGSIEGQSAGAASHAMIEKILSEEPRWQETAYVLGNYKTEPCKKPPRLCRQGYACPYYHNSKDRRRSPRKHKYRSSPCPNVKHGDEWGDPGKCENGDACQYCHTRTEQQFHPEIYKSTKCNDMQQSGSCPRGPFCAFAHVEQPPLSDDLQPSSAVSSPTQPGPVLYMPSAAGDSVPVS
For `UGGCCAGAACUAAAGGAGUCCAUUCCAGUGAUUAAUGGAAGAGAUUUACAGAACCCUAUUAUUGUUCAACUUUGUGAUCAGUGGGAUAAUCCAGCACCGGUACAACAUGUUAAAAUAAGU`, the bound/input enrichment was 0.173 ratio.
With `UGAUUUGCAAGUGGGGGGGAAAGCUACUGUGAGCGUGUGUUUUAUUUUUUAAAUUACACUAUAGAGUGAUUUCCCCCCCCCCCCAAUGUCAAGUUUUUACCCUGCAUGUACUGGAGUAUU` the bound/input enrichment was 1.32 ratio.
`UCAAAAUUAUGGCAUCGUCAAAGCAUUGUGGUGUCUUUUUUACUGCUGCUUGCUGUGCUUAUAGCUACGUAUUAUGUUGAAGGAGUGCAUCAACAGUAUGUGCAACGUAUAGAGAAACAG` has a bound/input enrichment of 0.453 ratio.
The bound/input enrichment of `CAUGGCGCACUGGACGCCCUCACCCAACUGGGCAACUGCGCCUGGCGCGUCAACGGGCGCGUGCUGGACCUGGUGCUGCAGCUCUUCCAGGCCAAGGGCUGCCCCCAGCUAGGCGUGCCG` is reported as 0.0996 ratio.
The bound/input enrichment of `UACAUGGGCUCACAGAAACAAUUUAAAAUUACUAAACUUUCACCAGCAAUGGGCUGUAAAUUCAGACUAUCGGCCAGAAAUGACUAUGGUACAAGUGGUUUUAGUGAAGAAGUCUUAUAU` is reported as 0.275 ratio.
For `GAUGAACUAGAAGAUGAUGAUUUUGACAGCAAUGCAGUUGCAGGCGAGAGUGCUCUAGAUCGAAUGGCUUGCGGACUUGGUGGAAAGCUCGUUCUGCCGAUGAUCAAGGAACACAUUAUG`, the bound/input enrichment was 0.356 ratio.
The bound/input enrichment of `UACCUCCAGAAGGCACUACUUCUAUCGUAGGGCGAGUCUAAUUGUUAGACAUUUCUUACUUAUAGUGAUUGGAUUCUGCUUUCCUAUGACUUCUGCCUACUGGGUCUUGUUUUGUUCCUU` is reported as 0.357 ratio.
For `CAUAAUCACAAGUUUGAAAUAUCCUAUUUCUUAAAUAAAAAGGAGAACGUUAAUUACAUUUAGCAGACAUUUUUACAUUCAAAACUGGAUAUUGAAAUACGUGGAACAAUUGCUUUAAAU`, the bound/input enrichment was 0.211 ratio.

Set 3
Target: RNA binding protein fox-1 homolog 2, RRM domain, GST-SBP tag (RBFOX2, Homo sapiens, UniProt O43251-10, residues 100-194)
Technique: RNA Bind-n-Seq
Molecule type: RNA
Sample: in vitro
Concentration: 365 nM
Notes: natural RNA segment, single round, ends assumed
Baseline: no-protein control
Reading: higher = stronger binding
Constant ends, left off below: GGGAGUUCUACAGUCCGACGAUC … UGGAAUUCUCGGGUGCCAA
Residues (chain): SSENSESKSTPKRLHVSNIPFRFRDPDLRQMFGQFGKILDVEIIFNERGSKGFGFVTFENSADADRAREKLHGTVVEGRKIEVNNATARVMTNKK
For `CCAUUUUAAGAAGAUUCCAUUUCGGAAGAAGAUGCCGAAAUUUACAAAUUUCGCCAUACUCAGUGGGACUCUCAAGUAGACUUUCAUAGUUGCAGUCACUUCAGGUCUCU`, “RBNS enrichment (R)” read 0.308.
For `AGAAGUGGGGGCAGCCCAGGCGGUUUCACGCCCCACACUUUGUACAGACCGAGAGGCCAGUUGAUCUGCUCUGUUUUAUACUAGUGACAAUAAAGAUUAUUUUUUGAUAC`, “RBNS enrichment (R)” read 0.46.
`CUGUUCUUGUAGAUCUAGCUCCUCAGAGUUGGAGGAAGGCUGACAGAGAAGGUCUCCUCUGUGCUCCAUCCACACAGGAUGCCGGAGAGACAGCCCCUUGUGCUGUGAGC`: “RBNS enrichment (R)” 0.325.
Under “RBNS enrichment (R)”, `CCUUUGUCCUUUGCUUGGCCUAAGAUGCCAAUGCCCCGCCAUGUUUUCUCCAGAGAGUCCUUGGGGUGAGCCUUGGGGCACAGGUACACUCAGAGGUCUGAGAGCCUACC` is recorded as 0.445.
Under “RBNS enrichment (R)”, `CUGCCGUAGCUUCAGCCAGGCAAGAAAGCUUCCUUCAACCUGCAUAGCCGGUGGGUGAGGAGAUUCCCACCUUCCAUAGCCUCCAAACAUGUUCCCAAGGCCCCACUUUC` is recorded as 0.633.
`UGUCCUUGAUCUCCUCUUGUUCCCCUUUCUGCUUGUAGCAGCCUCACUUGGCAAAUGUAACGGCUCAGGUACCCUGGCUUCCUUCCCAGAAACAAGCCUUGCCUGUGCAU`: “RBNS enrichment (R)” 1.78.
`AAGAAGCCUUAAAUGAGAGCUAAUCCAAUCUAGAGAGCGAUGGUGUCAGCAUUUCGGUCUGCAUAUCUGUGUGUCCGUAUCUGCGUUUGUGUGCGUGUACGUGUGCCCCU`: “RBNS enrichment (R)” 0.74.
`UGUUCAUAAUUGCCAAAGCAGUAUUUAUACUAUUGUAAACAACUCGCACAUCUCUCCUGUCUGUUAGUAGUAAGAAUACAGGGAAAUGUCUUCAGCCCCACGUAGAUGCU`: “RBNS enrichment (R)” 0.748.

Set 4
Target: ABI1, truncated, D143A, DHFR fusion (Arabidopsis thaliana)
Technique: DHFR PCA, deep sequencing
Sample: yeast
Notes: methotrexate growth selection, single substitutions
Together with: (+)-ABA 17 µM
Baseline: wild-type fitted maximum
Reading: higher = stronger binding
Starting sequence: PYL1, truncated, DHFR fusion (Arabidopsis thaliana); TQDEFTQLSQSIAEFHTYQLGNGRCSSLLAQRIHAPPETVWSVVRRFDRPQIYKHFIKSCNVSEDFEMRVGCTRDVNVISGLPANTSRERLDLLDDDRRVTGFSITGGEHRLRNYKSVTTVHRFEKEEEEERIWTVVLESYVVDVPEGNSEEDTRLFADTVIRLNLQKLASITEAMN; partner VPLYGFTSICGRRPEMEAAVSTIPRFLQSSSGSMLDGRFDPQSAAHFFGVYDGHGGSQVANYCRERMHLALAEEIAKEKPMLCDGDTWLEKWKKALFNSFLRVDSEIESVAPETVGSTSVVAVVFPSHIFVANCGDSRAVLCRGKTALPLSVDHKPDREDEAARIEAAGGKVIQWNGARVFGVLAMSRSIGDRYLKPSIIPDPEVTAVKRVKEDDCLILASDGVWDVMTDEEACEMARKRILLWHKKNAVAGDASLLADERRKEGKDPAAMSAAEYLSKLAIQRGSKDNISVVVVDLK
Under “relative binding score”, `M68A` is recorded as 63.2%.
Under “relative binding score”, `C60E` is recorded as -16.6%.
`H110P` — result for “relative binding score”: 22.4%.
`D96M` — result for “relative binding score”: -3.61%.
Under “relative binding score”, `R24H` is recorded as 58.4%.
Under “relative binding score”, `F47L` is recorded as -11.8%.
`A170M`: “relative binding score” 63.2%.
`R163I` — result for “relative binding score”: 16.9%.
`F56I`: “relative binding score” -10.3%.
